Measurements gathered from unrelated publications.
Numbered parts are unrelated; each lists some results of a single study. Changes are numbered by the printed parent chain.

Study 1 — method: Sort-seq; measured: YFP reporter; medium: E. coli; setting: PhoQ-PhoP variant library; with: 10 µM Mg2+; baseline: high Mg2+ state; direction: higher = stronger signaling; endpoint: fold induction
Molecule: PhoQ, residues 284 288 289 292 302 303 TASMAF
PhoP, residues 12 14 15 18 19 ICWRQ (Escherichia coli, UniProt P23836): 9.24
PhoP, residues 12 14 15 18 19 VHTVL (Escherichia coli, UniProt P23836): 8.87
PhoP, residues 12 14 15 18 19 TQCLL (Escherichia coli, UniProt P23836): 14

Study 2 — target: CCNE2, cyclin fold, Cln2 fusion (human); method: yeast growth competition, sequencing; medium: yeast; setting: weak parent motif; baseline: not given; direction: higher = stronger binding; endpoint: normalised enrichment score
Starting sequence: FZR1 docking peptide (human); QDYERRLLRQIVI
R5A L7A: 0.163
R5A: 0.182
I13A: 0.751
L8F: 0.653
E4A: 1.24
R5K: 0.499
Y3A: 0.596
R9A: 0.231
Q10A: 0.144
V12A: 0.845

Study 3 — method: RNA Bind-n-Seq; molecule type: RNA; medium: in vitro; concentration: 365 nM; baseline: no-protein control; direction: higher = stronger binding; endpoint: RBNS enrichment (R)
Target: RNA binding protein fox-1 homolog 2, RRM domain, GST-SBP tag (RBFOX2, Homo sapiens, UniProt O43251-10, residues 100-194)
Setting: natural RNA segment, single round, ends assumed
All sequences stand within: GGGAGUUCUACAGUCCGACGAUC … UGGAAUUCUCGGGUGCCAA
Construct (chain): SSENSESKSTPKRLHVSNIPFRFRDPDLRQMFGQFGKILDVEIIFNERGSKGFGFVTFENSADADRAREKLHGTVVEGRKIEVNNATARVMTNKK
AAUAUAGUUUUUUUAGUAUAAUUCCACUGCACUUAACACUAAUGUUCAUGUUGGUAUAGAAAUGUCUUUUAAAUCCUAUUGUUGAGCAAGAUCUGCUCUCUGUCUAUGGU: 0.278
CCUUUCAGCUACUACGUUACCACGUUCCUAAAACGCAAGCUCUCCGGACCAGACGGACACAGGGAGAAGCUAGUUUCUUUCAUGUGAUUGAAAUGAUGACUCUACUCCUA: 0.355
CUCUGUCUCACUCCACCUCCUUAUCUGCCAGCAUUGCUGUUUCCUGCAAAGGAUUAUGGGAAACUCCAGGACUCUUCUACCCAGCUCCUGCCUGCAAAGGUUCCCUGCAU: 0.394
AACCAGUGAAGUUUGAUGGACUGUGCAUAGAGUUUUGCAGCUUUUGAGUAGUGUGACAGAGUUUGCCUCUUAAAAUUGUUUUGCUAAUAAGUCAGAAGUUUAAAAUGUGU: 2.34
GGGGUUUGGUUUGGCUCCUCUGUGUGUGUCCGUAUCUUGUUCGGUGUCCUCGAGGUUGAGCUUCACUCCACUGCGGCAGAGGCAGCGUGCACACUCGGAUUUGCUACGUU: 0.952
AAACUUAGUUCCCAAAUAAAUCAAUCCUGUCUUUCCCAUCUUCGAUGUUGCUAAUAUUAAGGCUUCAGGGCUACUUUUAUCAACAUGCCUGUCUUCAAGAUCCCAGUUUA: 0.93
UUUAUUCAAAGUGUAAAAGCACAUACUGCAUUUUCUGCUGAAAGAUCAUUAUGUUUAACAGGCACUUAAUCUCAGUAAAGUCAGUUGCCAGUUAAGUUCCACCCAGUAGU: 0.408
GCUUCUGUUCAGGCUCAUGCCAAGCUUGACCGGAUUGGGAGAACUGGACUCAGUUUAACCUGUAUCCACUCUCCUUAGCCAAAGUGUGCGUCUGUCGAAAGCUGAAGUGC: 0.96
GCAGGCAACGGGCUACAGCUUUAUUAGUGGUUCUCUAACUGUGGUCUCCUUGGGCCAAGCAAUUUCUUUAAAGGAAAAGUUGAUUAUGUAUGUGGGGUGCCAGGACCACU: 1.49
AGUGCUCCUGGAAACUUAGCUUUUGAUGUCUCCAAGUAGUCCACCUUCAUUUAACUCUUUGAAACUGUAUCAUCUUUGCCAAGUAAGAGUGGUGGCCUAUUUCAGCUGCU: 0.417
UAUUGCUCGUUCUAACUGUAAAGAAACCAAGAAAUAAUACAAGCUGGGGAAAAGAGAUGUCUUAAUUAGGGUCCUAUUGCUGUGAUGAAACAAAAUGACCAAACUCACGG: 0.558
CUAGCAAGAAGUAUAUAUUUUCUUUGAUUUUUAUUUUCAUUUUCCUUUGCCUGUAUUUAUCAAAGAAAAAGACCAAAAGAUGAUGGUAAAACCUCUGUUUCUAUAGAUUU: 0.448

Study 4 — method: DHFR PCA, deep sequencing; medium: yeast; with: (+)-ABA 1.4 µM; baseline: wild-type fitted maximum; direction: higher = stronger binding; endpoint: relative binding score
Target: ABI1, truncated, D143A, DHFR fusion (Arabidopsis thaliana)
Setting: methotrexate growth selection, single substitutions
Starting sequence: PYL1, truncated, DHFR fusion (Arabidopsis thaliana); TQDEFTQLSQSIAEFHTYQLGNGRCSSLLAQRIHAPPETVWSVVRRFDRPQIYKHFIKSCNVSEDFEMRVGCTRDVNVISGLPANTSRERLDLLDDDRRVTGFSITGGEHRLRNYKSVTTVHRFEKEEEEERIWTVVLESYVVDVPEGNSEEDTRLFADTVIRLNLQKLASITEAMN; partner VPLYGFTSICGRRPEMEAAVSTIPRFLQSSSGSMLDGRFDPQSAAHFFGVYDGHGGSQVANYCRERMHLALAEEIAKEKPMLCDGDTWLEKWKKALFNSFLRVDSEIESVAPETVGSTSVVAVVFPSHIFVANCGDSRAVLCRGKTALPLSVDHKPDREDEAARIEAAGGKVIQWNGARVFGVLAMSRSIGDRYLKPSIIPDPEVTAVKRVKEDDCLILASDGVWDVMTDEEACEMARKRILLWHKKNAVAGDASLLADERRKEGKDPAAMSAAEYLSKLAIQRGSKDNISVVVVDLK
S59T: 51%
L156P: 3.77%
V43N: -16.6%
W41H: 4.89%
V136Y: 36.9%
P146T: 10.3%
I162F: -23.8%
L82Y: 28.8%
R113K: 78%
C25G: -14.7%
S171E: 76.7%
V121F: -1.09%
I162G: 6.54%
R123T: 54.6%
G81K: -9.13%
C25P: -3.46%

Study 5 — method: RNA Bind-n-Seq; molecule type: RNA; medium: in vitro; concentration: not given; baseline: input RNA pool; direction: higher = stronger binding; endpoint: bound/input enrichment
Target: RING finger protein unkempt homolog, zinc fingers 1-6, GST-SBP tag (UNK, Homo sapiens, UniProt Q9C0B0, residues 30-357)
Setting: RNA with constant flanks, human and mouse sites, ends assumed
All sequences stand within: GGGAGUUCUACAGUCCGACGAUC … CAACAGAGGAUUGAGCAUCA
Construct (chain): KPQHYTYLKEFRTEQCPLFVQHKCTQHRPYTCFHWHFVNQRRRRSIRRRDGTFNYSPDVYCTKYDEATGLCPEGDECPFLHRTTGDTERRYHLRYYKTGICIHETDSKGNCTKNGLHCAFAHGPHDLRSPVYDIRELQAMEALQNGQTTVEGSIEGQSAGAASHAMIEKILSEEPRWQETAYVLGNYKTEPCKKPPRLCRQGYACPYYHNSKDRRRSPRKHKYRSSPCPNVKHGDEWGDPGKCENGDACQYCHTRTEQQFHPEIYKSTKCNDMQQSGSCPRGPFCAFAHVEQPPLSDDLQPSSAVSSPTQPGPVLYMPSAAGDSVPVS
UUGUAAUAAGUAUACUCUGUUAUAAUAUUCAACAAAAUUAAAUCCAAAUUCAAAAGUAUCCAUUAAAGUUCUAUCUUCUCAUAUCACAGUUUUUAAAGUUGAAAAGCAUCCCAGUUAAAC: 2.82 ratio
CGAGUCCCGGCCACCCGGCGCAGCCCUGGGCCCGGGCCCAGCCAGUCACCCCGCAGCCCGAAACACACGCGGCCAGCGGAGCUGCGGCUGGCACCCUUGACCAGGGUGCUUACGCCACCC: 0.0718 ratio
CCAUUGUACCCUGCUGUAUAAUAAACAAUCUUAGACAUUUAUCAACUGUUGAUACAAAUGUUAGUCCCUAACCACUUUUUAUAUAUGUUUUAAAUUUUUGAAAUUCAAGUGUACCUGCCA: 28.8 ratio
AGUGCUGCAGCAGCUCCCAGUCCAGUGCUAGGAAACAUUCCCCCAGGAGAUGGCAUGCCAGUAGGUCCUGUACCACCAGGGUUCUUUCAGGCACUUGGAGGUGUCCCAGGAAGUCAGCCA: 0.076 ratio
AGAUUUUGUGCUUGAUUUUUAAGAAUGGAAUCAUGGGAAUUUUUUUCUUUUUUUUUUUUUAAUGUAUCUUGACUGUUGUCUGUCUUGUUCCUGACCUGGCACGCUGACAGUACCUUGUCC: 0.421 ratio
GCACUGGAGGAACUCCUGCCAUUACCAGCUCCCUUCUUGCAGAAGGGAGGGGGAAACAUACAUUUAUUCAUGCCAGUCUGUUGCAUGCAGGCUUUUUGGCUUCCUACCUUGCAACAAAAU: 0.104 ratio
GAAAAAGAGCAGGAAGUGAAUGCUCGUUUACUUCAUUGUGUGAGUAAACAGAAAAUUUUACUUAGCCAGGCUAGAAGAACUCAGAAACACUUGCAGAUGCUCCUGGCAAAGCAUGUUGUU: 0.139 ratio
AGUGAAGAGGCUGGUGUAAUCGAAACAAUUAAGAACAAAAUUAAGAAGAACGUUGAUGCCCGGAAAUCCACCCCCUCCAUGGUCGAUCGACUUCAGAGGCAGAUCAUCAUCGCUGACUGC: 0.297 ratio
AGUAAAGUUGACAAUAAAACCAGAGUUUCUAUCUAUCUGAUUUUUUUUUUUUUUUAAUUGUAGUUGCACUUGUAGAUCAGAUUAUCAGAGGCAGGAGCACUCCCGGAUUGGAGCAUACUU: 2.19 ratio
UGAGAUAAAAAGUUUCACUCUGCUAAGGAUAAUUACCUUUCUAAGCAUGAAAACAGACAUGCUAAGUUUUCACAUCCCUAAGUAGACAUCCCUCAUGAAUCAGAAUCGUUACAGGCCAUC: 0.199 ratio
GGAGACAAGUGCACCAAACCCUUACCUUAUGAACCUUAUAAGGCCCUCCAUGGGCCCUUGCCUCUAUGUCUUCUUAAAGGUAAGAGGGCUCACUCCAAAUCUCUGGACUACCUCAAUCUA: 0.183 ratio

A few entries again (study 3):
AAUAUAGUUUUUUUAGUAUAAUUCCACUGCACUUAACACUAAUGUUCAUGUUGGUAUAGAAAUGUCUUUUAAAUCCUAUUGUUGAGCAAGAUCUGCUCUCUGUCUAUGGU: 0.278
AAACUUAGUUCCCAAAUAAAUCAAUCCUGUCUUUCCCAUCUUCGAUGUUGCUAAUAUUAAGGCUUCAGGGCUACUUUUAUCAACAUGCCUGUCUUCAAGAUCCCAGUUUA: 0.93
AGUGCUCCUGGAAACUUAGCUUUUGAUGUCUCCAAGUAGUCCACCUUCAUUUAACUCUUUGAAACUGUAUCAUCUUUGCCAAGUAAGAGUGGUGGCCUAUUUCAGCUGCU: 0.417
AACCAGUGAAGUUUGAUGGACUGUGCAUAGAGUUUUGCAGCUUUUGAGUAGUGUGACAGAGUUUGCCUCUUAAAAUUGUUUUGCUAAUAAGUCAGAAGUUUAAAAUGUGU: 2.34
GCAGGCAACGGGCUACAGCUUUAUUAGUGGUUCUCUAACUGUGGUCUCCUUGGGCCAAGCAAUUUCUUUAAAGGAAAAGUUGAUUAUGUAUGUGGGGUGCCAGGACCACU: 1.49
CUAGCAAGAAGUAUAUAUUUUCUUUGAUUUUUAUUUUCAUUUUCCUUUGCCUGUAUUUAUCAAAGAAAAAGACCAAAAGAUGAUGGUAAAACCUCUGUUUCUAUAGAUUU: 0.448
GCUUCUGUUCAGGCUCAUGCCAAGCUUGACCGGAUUGGGAGAACUGGACUCAGUUUAACCUGUAUCCACUCUCCUUAGCCAAAGUGUGCGUCUGUCGAAAGCUGAAGUGC: 0.96
GGGGUUUGGUUUGGCUCCUCUGUGUGUGUCCGUAUCUUGUUCGGUGUCCUCGAGGUUGAGCUUCACUCCACUGCGGCAGAGGCAGCGUGCACACUCGGAUUUGCUACGUU: 0.952
